Measurements gathered from unrelated publications.
Every numbered part comes from another study and shows a few of its results, in no order.
Chain of UniProt P41743 (whole entry, looked up): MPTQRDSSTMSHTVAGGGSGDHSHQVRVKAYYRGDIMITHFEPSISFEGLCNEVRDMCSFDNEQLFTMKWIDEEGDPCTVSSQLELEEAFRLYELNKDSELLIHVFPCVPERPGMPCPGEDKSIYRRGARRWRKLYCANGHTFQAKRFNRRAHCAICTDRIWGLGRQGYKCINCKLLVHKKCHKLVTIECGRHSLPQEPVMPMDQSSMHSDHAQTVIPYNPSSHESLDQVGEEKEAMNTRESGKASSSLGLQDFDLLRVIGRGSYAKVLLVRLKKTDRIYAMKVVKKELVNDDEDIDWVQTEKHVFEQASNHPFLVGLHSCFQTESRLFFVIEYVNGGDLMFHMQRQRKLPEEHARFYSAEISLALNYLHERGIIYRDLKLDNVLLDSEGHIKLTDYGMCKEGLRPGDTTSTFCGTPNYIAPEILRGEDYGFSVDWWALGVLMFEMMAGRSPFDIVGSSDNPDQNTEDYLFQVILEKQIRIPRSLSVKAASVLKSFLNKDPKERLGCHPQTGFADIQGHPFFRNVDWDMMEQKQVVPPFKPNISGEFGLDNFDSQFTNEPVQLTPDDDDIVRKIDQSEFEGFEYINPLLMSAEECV
Chain of UniProt P51955 (whole entry, looked up): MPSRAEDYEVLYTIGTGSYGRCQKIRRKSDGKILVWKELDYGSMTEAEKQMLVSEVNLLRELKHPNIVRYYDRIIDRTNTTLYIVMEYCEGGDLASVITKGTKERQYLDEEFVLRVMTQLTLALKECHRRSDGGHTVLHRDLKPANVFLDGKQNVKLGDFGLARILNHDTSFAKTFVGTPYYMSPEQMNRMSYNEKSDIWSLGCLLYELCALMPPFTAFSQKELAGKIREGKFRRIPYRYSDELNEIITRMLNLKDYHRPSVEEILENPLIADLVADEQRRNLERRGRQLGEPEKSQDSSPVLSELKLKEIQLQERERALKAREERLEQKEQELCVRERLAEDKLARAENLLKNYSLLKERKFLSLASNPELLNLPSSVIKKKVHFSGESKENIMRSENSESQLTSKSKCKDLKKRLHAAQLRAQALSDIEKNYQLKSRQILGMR
Chain of UniProt Q13555 (whole entry, looked up): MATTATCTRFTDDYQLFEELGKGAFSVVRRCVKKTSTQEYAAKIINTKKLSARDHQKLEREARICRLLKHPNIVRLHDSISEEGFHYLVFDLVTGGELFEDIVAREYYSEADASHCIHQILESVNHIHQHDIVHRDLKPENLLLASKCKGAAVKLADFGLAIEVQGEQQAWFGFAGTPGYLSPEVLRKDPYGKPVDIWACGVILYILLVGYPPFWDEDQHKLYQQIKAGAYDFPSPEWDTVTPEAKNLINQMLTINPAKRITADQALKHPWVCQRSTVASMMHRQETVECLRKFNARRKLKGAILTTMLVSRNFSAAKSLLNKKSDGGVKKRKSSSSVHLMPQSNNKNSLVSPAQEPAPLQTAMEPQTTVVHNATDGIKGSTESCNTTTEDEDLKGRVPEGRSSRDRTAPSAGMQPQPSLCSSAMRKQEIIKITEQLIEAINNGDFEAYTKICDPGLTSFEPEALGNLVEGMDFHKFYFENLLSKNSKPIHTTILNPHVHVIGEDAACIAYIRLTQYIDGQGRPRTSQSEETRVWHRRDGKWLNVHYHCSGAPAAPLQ

Set 1
Structure (SMILES): O=S(=O)(NC1CCC(c2cc(F)ccc2F)(S(=O)(=O)c2ccc(Cl)cc2)CC1)C(F)(F)F (stereo not shown)
Tested at: 1 µM
target	assay	remaining binding [%]
CAMK1G (Homo sapiens, UniProt Q96NX5)	cell-free assay, competition with immobilised ligand	100
CDKL2 (Homo sapiens, UniProt Q92772)	cell-free assay, competition with immobilised ligand	100
PRKCI (Homo sapiens, UniProt P41743)	cell-free assay, competition with immobilised ligand	100
Tyrosine-protein kinase ABL1, phosphorylated (ABL1, Homo sapiens, UniProt P00519, H396P)	cell-free assay, competition with immobilised ligand	100
EIF2AK1 (Homo sapiens, UniProt Q9BQI3)	cell-free assay, competition with immobilised ligand	100
PDGFRA (Homo sapiens, UniProt P16234)	cell-free assay, competition with immobilised ligand	100
TLK2 (Homo sapiens, UniProt Q86UE8)	cell-free assay, competition with immobilised ligand	100
MAP3K12 (Homo sapiens, UniProt Q12852)	cell-free assay, competition with immobilised ligand	100
LRRK2 (Homo sapiens, UniProt Q5S007)	cell-free assay, competition with immobilised ligand	96
PLK4 (Homo sapiens, UniProt O00444)	cell-free assay, competition with immobilised ligand	100
ZAP70 (Homo sapiens, UniProt P43403)	cell-free assay, competition with immobilised ligand	100
DCLK1 (Homo sapiens, UniProt O15075)	cell-free assay, competition with immobilised ligand	100
MAP3K20 (Homo sapiens, UniProt Q9NYL2)	cell-free assay, competition with immobilised ligand	92
NEK2 (Homo sapiens, UniProt P51955)	cell-free assay, competition with immobilised ligand	98
CDK18 (Homo sapiens, UniProt Q07002)	cell-free assay, competition with immobilised ligand	100
Tyrosine-protein kinase ABL1, non-phosphorylated (ABL1, Homo sapiens, UniProt P00519, F317I)	binding, competition with immobilised ligand	84
CAMK2G (Homo sapiens, UniProt Q13555)	cell-free assay, competition with immobilised ligand	100
CDC42BPG (Homo sapiens, UniProt Q6DT37)	competition binding	100
MAPK8 (Homo sapiens, UniProt P45983)	cell-free assay, competition with immobilised ligand	78

Set 2
Target: DNA polymerase theta, ATPase domain (POLQ, Homo sapiens, UniProt O75417)
Chain of UniProt O75417 (whole entry, unmodified, looked up): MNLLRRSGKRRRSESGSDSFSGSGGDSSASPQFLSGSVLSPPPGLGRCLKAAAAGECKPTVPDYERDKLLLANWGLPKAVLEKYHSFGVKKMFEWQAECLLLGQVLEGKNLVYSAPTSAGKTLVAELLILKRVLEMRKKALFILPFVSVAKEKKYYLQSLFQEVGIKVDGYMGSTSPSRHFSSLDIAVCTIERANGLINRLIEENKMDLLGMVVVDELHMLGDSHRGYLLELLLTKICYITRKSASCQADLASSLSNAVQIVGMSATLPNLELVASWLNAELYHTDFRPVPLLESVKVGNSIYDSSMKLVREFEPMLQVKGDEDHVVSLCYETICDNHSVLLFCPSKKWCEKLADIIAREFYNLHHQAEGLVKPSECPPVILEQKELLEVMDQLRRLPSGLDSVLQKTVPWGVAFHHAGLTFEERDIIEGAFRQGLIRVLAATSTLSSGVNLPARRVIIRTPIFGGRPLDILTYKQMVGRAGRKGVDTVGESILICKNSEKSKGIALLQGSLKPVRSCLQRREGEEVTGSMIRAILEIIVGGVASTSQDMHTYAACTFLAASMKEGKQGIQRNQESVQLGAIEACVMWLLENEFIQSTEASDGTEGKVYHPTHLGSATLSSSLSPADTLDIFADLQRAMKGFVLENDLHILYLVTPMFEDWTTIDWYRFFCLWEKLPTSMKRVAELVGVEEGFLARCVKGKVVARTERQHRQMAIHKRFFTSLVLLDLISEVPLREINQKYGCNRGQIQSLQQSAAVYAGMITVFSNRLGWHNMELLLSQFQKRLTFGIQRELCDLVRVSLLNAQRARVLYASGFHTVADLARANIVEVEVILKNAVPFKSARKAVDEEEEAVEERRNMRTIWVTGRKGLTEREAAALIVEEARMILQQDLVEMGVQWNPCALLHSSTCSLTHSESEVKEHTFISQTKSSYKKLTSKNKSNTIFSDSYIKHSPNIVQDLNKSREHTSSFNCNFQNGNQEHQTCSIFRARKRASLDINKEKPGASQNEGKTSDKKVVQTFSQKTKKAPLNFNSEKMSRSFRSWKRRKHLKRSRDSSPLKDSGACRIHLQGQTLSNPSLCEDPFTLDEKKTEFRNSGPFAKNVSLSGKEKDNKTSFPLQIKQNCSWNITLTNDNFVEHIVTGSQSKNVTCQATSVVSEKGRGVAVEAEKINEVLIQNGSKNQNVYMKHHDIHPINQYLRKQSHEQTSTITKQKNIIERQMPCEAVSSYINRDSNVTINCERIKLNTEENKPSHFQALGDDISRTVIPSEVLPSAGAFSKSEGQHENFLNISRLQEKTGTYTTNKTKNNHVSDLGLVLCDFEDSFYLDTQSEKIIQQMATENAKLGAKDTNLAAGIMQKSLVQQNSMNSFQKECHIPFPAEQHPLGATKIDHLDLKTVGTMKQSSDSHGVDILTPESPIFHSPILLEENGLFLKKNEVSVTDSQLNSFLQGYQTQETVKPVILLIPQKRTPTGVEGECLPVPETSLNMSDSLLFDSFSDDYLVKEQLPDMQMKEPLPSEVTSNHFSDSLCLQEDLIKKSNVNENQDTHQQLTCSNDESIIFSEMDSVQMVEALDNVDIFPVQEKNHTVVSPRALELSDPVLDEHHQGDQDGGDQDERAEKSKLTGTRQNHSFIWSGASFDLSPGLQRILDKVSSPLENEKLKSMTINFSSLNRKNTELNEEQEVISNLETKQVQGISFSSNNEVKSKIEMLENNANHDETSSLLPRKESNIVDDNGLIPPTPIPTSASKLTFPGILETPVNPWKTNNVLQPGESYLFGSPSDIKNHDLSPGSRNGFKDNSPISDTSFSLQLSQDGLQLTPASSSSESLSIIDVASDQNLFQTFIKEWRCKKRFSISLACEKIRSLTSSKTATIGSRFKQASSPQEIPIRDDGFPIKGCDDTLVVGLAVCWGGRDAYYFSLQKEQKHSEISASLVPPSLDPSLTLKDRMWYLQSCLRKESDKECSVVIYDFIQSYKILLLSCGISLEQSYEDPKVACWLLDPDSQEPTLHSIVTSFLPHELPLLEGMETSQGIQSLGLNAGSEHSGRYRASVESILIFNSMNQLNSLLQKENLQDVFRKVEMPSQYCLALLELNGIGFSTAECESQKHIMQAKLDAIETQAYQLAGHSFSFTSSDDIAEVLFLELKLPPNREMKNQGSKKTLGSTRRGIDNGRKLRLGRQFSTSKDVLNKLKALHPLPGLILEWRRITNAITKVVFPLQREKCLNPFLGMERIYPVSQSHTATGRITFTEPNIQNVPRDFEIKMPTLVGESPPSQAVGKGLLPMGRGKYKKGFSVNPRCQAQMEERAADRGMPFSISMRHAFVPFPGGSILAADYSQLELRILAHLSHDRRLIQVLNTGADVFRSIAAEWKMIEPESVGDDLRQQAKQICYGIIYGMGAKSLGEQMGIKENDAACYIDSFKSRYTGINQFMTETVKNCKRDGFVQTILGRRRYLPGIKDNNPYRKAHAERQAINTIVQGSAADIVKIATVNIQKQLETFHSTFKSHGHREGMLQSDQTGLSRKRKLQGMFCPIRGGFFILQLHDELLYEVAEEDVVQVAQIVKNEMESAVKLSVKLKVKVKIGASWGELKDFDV
Read-out: enzyme activity
Mode: inhibitor
Tested at: 77 µM
Relative to: untreated
Compound	remaining activity
CCCCC(CC)CN1CN(CC(CC)CCCC)CC(C)(N)C1 (stereo not shown)	87.1%
COc1cc(/C=C/C(=O)CC(=O)/C=C/c2ccc(O)c(OC)c2)ccc1O	95.1%
O=C(c1cc(Cc2n[nH]c(=O)c3ccccc23)ccc1F)N1CCN(C(=O)C2CC2)CC1	102%
NC(N)=NC(=O)c1nc(Cl)c(N2CCCCCC2)nc1N	103%
Cc1cc(Nc2nc(-c3ccccc3)nc3ccccc23)n[nH]1	116%
COC1=C(OC)C(=O)c2ccccc2C1=O	80%
O=[N+]([O-])c1ccc(CSc2ncnc3c2ncn3[C@@H]2O[C@H](CO)[C@@H](O)[C@H]2O)cc1	102%
S=C(Nc1ccccc1)Nc1nccs1	108%
C=CC[N+]1([C@H]2C[C@H]3[C@@H]4CC[C@H]5C[C@H](O)[C@@H](N6CCOCC6)C[C@]5(C)[C@H]4CC[C@]3(C)[C@H]2OC(C)=O)CCCC1	98.3%

Set 3
SMILES: Cc1ccc(NC(=O)c2ccnc(C(F)(F)F)c2)cc1-c1cc(OCCO)nc(N2CCOCC2)c1
Tested at: 1 µM
target	assay	conditions	scale	remaining binding [%]
MAP4K4 (Homo sapiens, UniProt O95819)	competitive binding panel		relative to: vehicle	88
CDK4 (Homo sapiens, UniProt P11802)	competitive binding scan	together with: cyclin D1		97
LTK (Homo sapiens, UniProt P29376)	competitive binding panel		relative to: vehicle	93
STK11 (Homo sapiens, UniProt Q15831)	competitive binding panel, measured: LKB1		relative to: vehicle	100
PRKCH (Homo sapiens, UniProt P24723)	competitive binding panel		relative to: vehicle	94
EPHA7 (Homo sapiens, UniProt Q15375)	competitive binding panel		relative to: vehicle	99
FGR (Homo sapiens, UniProt P09769)	competitive binding panel		relative to: vehicle	80
PRKCI (Homo sapiens, UniProt P41743)	competitive binding panel		relative to: vehicle	98
NEK1 (Homo sapiens, UniProt Q96PY6)	competitive binding panel		relative to: vehicle	100
PRKAA1 (Homo sapiens, UniProt Q13131)	competitive binding, scanMAX	AMPK-alpha1, 1000 nM		85
CSNK1G3 (Homo sapiens, UniProt Q9Y6M4)	competitive binding panel		relative to: vehicle	100
CLK3 (Homo sapiens, UniProt P49761)	competitive binding panel		relative to: vehicle	100
MAPK10 (Homo sapiens, UniProt P53779)	competitive binding, scanMAX	JNK3, 1000 nM		90
PIM3 (Homo sapiens, UniProt Q86V86)	competitive binding panel		relative to: vehicle	85
ABL1 (Homo sapiens, UniProt P00519, M351T)	competitive binding panel		relative to: vehicle	100
EGFR (Homo sapiens, UniProt P00533, L858R/T790M)	competitive binding panel		relative to: vehicle	84
PLK2 (Homo sapiens, UniProt Q9NYY3)	competitive binding panel		relative to: vehicle	78
PIK3CA (Homo sapiens, UniProt P42336, I800L)	competitive binding panel		relative to: vehicle	88

Set 4
Target: LIM domain kinase 1 (LIMK1, Homo sapiens, UniProt P53667)
Chain of UniProt P53667 (whole entry, looked up): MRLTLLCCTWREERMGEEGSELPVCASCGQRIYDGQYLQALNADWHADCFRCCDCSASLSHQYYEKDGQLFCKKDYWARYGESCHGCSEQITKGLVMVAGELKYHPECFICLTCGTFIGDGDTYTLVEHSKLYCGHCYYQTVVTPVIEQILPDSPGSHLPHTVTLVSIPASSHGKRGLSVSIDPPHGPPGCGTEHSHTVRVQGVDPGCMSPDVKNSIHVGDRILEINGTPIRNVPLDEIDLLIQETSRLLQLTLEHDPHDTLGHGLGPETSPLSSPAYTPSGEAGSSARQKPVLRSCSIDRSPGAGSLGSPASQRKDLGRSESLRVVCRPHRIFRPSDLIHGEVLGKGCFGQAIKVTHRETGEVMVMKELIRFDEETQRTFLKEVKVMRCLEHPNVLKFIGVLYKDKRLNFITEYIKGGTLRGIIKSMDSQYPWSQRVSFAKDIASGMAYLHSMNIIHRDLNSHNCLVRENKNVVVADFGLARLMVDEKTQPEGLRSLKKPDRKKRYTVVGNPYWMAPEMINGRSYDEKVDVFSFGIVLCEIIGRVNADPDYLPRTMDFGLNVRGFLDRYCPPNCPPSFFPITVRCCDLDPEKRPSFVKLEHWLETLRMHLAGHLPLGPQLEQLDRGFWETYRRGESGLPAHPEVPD
Read-out: enzyme activity
Mode: inhibitor
Tested at: 0.5 µM
Relative to: control
SMILES	remaining activity [%]
O=C1c2ccccc2-c2nc3nnnn3nc21	65
CCCCc1c(-c2ccc(O)cc2)[nH]c2nccnc12	64.3
O=c1c(-c2ccc(F)cc2)c(-c2ccncc2)[nH]n1-c1ccc(Cl)cc1	91.5
CC(C)(C)c1nc2c3cc[nH]c(=O)c3c3cc(F)ccc3c2[nH]1	73.7
NC(=O)c1ccc(-c2nc(-c3ccc4c(c3)OCCO4)c(-c3ccccn3)[nH]2)cc1	104
c1cc(-c2cnn3cc(-c4ccc(OCCN5CCCCC5)cc4)cnc23)ccn1	66.4
FC(F)(F)c1ccc(/C=C/c2nc(COc3ccc(CCCCn4ccnn4)cc3)co2)cc1	99.2
CCN(CC)CCCCN1c2ccccc2Oc2ccc(Cl)cc21	94.3
CC(C)n1cnc2c(Nc3cccc(Cl)c3)nc(NCCO)nc21	105
Nc1nc(Nc2ccc(S(N)(=O)=O)cc2)nn1C(=S)Nc1c(F)cccc1F	-0.611
COc1cc2c(N3CCN(C(=O)Nc4ccc(OC(C)C)cc4)CC3)ncnc2cc1OCCCN1CCCCC1	88.6
COc1cc2c(Nc3ccc(Br)cc3F)ncnc2cc1OCC1CCN(C)CC1	88.1
N#C/C(=C(/N)SC1C=CC=CC1)c1cccc(C(O)c2ccncc2)c1 (stereo not shown)	99.1
CNc1cc2c(Nc3cccc(Br)c3)ncnc2cn1	95.9
Clc1ccc(Nc2nnc(Cc3ccncc3)c3ccccc23)cc1	98.9
C[C@@H](N)[C@H]1CC[C@H](C(=O)Nc2ccncc2)CC1	85.8
O=C1NC(=O)/C(=C/c2ccc3c(c2)OC(F)(F)O3)S1	96.4
CC(C)N(CCC(=O)c1ccc2ccccc2c1)Cc1ccccc1	103
O=C(O)/C=C/c1cc(Br)c(Br)c(Br)c1Br	101
O=C(c1ccccc1)c1ccc(N2CCOCC2)cc1O	83.9
NC(=O)c1cccc(-c2cc(Nc3ccc(OC(F)(F)F)cc3)ncn2)c1	100

For quick reference, copied from above (set 3):
target	assay	conditions	scale	remaining binding [%]
NEK1 (Homo sapiens, UniProt Q96PY6)	competitive binding panel		relative to: vehicle	100
PRKAA1 (Homo sapiens, UniProt Q13131)	competitive binding, scanMAX	AMPK-alpha1, 1000 nM		85
CSNK1G3 (Homo sapiens, UniProt Q9Y6M4)	competitive binding panel		relative to: vehicle	100
CLK3 (Homo sapiens, UniProt P49761)	competitive binding panel		relative to: vehicle	100
MAPK10 (Homo sapiens, UniProt P53779)	competitive binding, scanMAX	JNK3, 1000 nM		90
PIM3 (Homo sapiens, UniProt Q86V86)	competitive binding panel		relative to: vehicle	85
ABL1 (Homo sapiens, UniProt P00519, M351T)	competitive binding panel		relative to: vehicle	100
EGFR (Homo sapiens, UniProt P00533, L858R/T790M)	competitive binding panel		relative to: vehicle	84
